Measurements from different studies.
Each line is one published result; not all experiments were run side by side. Values joined by “and” are separate records of one study, mostly repeats; a detail may differ. ± marks the error that the study gave.
B1: protein R6A/R10A (Xanthomonas citri, UniProt A0AAI8ETV0); chain MIQDTARAPARQPTDLLPVIDTLSEVQIGRVGNVSETGMLLLASVPLHDDALYQLRFSLPERVGRATEIDVGVHLLWSEAAHAPGQAWAGFRFLTMSEPHRQRLRAWIAEEHLAG
B2: muscarinic toxin 3 mature (UniProt P81031); chain LTCVTKNTIFGITTENCPAGQNLCFKRWHYVIPRYTEITRGCAATCPIPENYDSIHCCKTDKCNE
UniProt P08913, sequence (whole entry, looked up): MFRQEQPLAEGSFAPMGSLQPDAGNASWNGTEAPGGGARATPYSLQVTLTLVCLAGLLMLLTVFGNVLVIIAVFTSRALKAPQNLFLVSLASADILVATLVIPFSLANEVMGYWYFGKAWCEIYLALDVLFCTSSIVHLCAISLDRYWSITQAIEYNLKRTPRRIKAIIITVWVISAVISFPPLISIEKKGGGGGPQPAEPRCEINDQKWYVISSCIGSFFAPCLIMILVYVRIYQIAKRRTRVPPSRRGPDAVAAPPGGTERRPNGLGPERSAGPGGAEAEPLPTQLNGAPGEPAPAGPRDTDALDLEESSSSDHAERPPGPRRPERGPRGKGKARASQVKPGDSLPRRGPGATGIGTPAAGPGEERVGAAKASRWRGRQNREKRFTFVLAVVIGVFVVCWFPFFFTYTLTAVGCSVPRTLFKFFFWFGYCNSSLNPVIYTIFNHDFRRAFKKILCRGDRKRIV
UniProt Q03405, sequence (whole entry, looked up): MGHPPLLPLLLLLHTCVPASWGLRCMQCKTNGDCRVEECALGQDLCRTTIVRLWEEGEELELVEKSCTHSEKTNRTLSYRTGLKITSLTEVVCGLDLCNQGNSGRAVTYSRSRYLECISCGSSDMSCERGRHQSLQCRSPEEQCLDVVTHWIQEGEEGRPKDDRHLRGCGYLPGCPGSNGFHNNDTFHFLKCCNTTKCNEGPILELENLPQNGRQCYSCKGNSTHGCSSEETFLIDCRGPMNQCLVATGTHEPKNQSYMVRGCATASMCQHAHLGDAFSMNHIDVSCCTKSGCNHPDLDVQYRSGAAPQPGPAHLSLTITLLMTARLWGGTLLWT
UniProt Q96AX9, sequence (whole entry, looked up): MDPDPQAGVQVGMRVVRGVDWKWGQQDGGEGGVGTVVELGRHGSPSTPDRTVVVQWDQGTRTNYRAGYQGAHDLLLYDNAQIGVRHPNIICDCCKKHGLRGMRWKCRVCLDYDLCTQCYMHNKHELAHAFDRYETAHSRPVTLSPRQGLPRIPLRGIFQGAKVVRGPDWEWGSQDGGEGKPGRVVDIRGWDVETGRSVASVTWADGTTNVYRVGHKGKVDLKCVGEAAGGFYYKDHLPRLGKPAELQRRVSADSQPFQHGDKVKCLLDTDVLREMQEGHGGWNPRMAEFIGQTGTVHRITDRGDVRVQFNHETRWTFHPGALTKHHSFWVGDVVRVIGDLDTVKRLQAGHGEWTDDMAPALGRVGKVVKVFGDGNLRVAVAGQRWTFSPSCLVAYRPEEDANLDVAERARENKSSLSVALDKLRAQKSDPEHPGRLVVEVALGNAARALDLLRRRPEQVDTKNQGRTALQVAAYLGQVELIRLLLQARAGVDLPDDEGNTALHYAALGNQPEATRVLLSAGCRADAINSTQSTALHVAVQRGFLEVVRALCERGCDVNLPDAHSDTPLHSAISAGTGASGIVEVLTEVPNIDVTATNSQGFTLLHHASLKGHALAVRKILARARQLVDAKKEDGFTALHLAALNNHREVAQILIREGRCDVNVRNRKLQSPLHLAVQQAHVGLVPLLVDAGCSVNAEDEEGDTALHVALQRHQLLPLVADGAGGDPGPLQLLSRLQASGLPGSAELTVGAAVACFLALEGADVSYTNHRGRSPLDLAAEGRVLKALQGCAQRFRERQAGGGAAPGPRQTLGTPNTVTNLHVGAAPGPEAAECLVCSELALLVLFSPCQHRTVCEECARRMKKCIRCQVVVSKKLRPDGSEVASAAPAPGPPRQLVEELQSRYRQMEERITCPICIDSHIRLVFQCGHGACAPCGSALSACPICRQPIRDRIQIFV

`B1 (protein R6A/R10A)` gave a Kd of 21.2 ± 51.5 µM (hemK (Xanthomonas citri, UniProt A0AAI7ZDL3); ITC).
For `BKRF4 fragment D81A/W84A/P86A/Y94A (Epstein-Barr virus)`, the unwrapping force was 12 pN (H2A/H2B dimer (Homo sapiens); magnetic tweezers; inner wrap; alanine mutant).
`MnTx-1 mature (Pterinochilus murinus, UniProt C0HMD2)` gave an IC50 of 0.171 µM (KCNA2 (Homo sapiens, UniProt P16389-1); K+ current inhibition, inhibitor, patch-clamp; whole-cell).
`CVADYSVLYNSASFS` has a responding donors of 8% (human CD4 T cells; AIM; peptide).
`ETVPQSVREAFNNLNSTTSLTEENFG (VP35 190-215 (Zaire ebolavirus); FITC label)` has a Kd of 5.4 ± 0.9 µM (MIB2 1-836 (Homo sapiens, UniProt Q96AX9); FP; peptide).
The Kd of `THBS1 (Homo sapiens, UniProt P07996)` is reported as 0.25 µM (env gp160 (HIV-1); radioligand binding; apparent, Scatchard).
For `ORF45 fragment (Kaposi's sarcoma-associated herpesvirus)`, the rupture force was 14 pN (H2A/H2B dimer (Homo sapiens); magnetic tweezers; inner wrap).
`main protease (SARS-CoV-2)` has a dimer fraction of 69 ± 3% (itself; native MS; 5 µM, apo).
For `B2 (muscarinic toxin 3 mature)`, the EC50 was 0.0126 µM and 0.0183 µM and 0.0185 µM (ADRA2A (Homo sapiens, UniProt P08913); flow cytometry; HEK293).
`RTCKDLIPVSECTDIRCRTSMKYRLNLCRKTCGSC (HmK mature (Heteractis magnifica, UniProt O16846))` has a koff of 0.0034 s⁻¹ (KCNA3 (Homo sapiens, UniProt P22001-1); channel current block, two-electrode voltage clamp; peptide).
`jingzhaotoxin-III (spider)` gave an IC50 of 0.297 µM (SCN5A domain II S3-S4 extracellular region, Gal4 activation domain fusion (Homo sapiens); sodium current, inhibitor, whole-cell patch clamp; HEK293).
For `LKPFERDISTEIYQA`, the responding donors was 17% (human CD4 T cells; AIM; peptide).
`ACE2/pIgR VHH6 Fc fusion ACE2 , Fc at C-terminus (Homo sapiens)` has a koff of 1.4e-05 s⁻¹ (spike RBD RBD (SARS-CoV-2, UniProt P0DTC2); BLI).
The cell migration of `PLAU two-chain form, DIP-inactivated` is reported as 2 fold (PLAUR (Homo sapiens, UniProt Q03405); migration; MCF-7 M5; 10 nM, 6 h; higher = more migration).

Repeated from above:
For `ORF45 fragment (Kaposi's sarcoma-associated herpesvirus)`, the rupture force was 14 pN (H2A/H2B dimer (Homo sapiens); magnetic tweezers; inner wrap).
`main protease (SARS-CoV-2)` has a dimer fraction of 69 ± 3% (itself; native MS; 5 µM, apo).
